Measured values pooled from the literature.
“And” joins repeats or separate records; there may be more than shown. Converted amounts (≈) assume the structure as drawn.
Organism: Staphylococcus aureus

SMILES | assay | test system | setting | scale | quantity | result
C[C@@H]1C(=O)O[C@@H](C)/C=C/C=C\[C@@H](C)[C@@H]2C=C[C@@H]3C[C@@]4(C)O[C@H]4[C@@H](C)[C@H]3[C@@H]2C(=O)C(Cl)(Cl)C1=O | – | MSSA clinical isolate, susceptible | – | – | MIC | 0.025 µg/mL (≈ 0.0505 µM)
CC(C)CCCCCCCCC/C=C/C(=O)N[C@@H](CC(=O)O)C(=O)N[C@H]1CNC(=O)[C@@H]2CCCN2C(=O)[C@H](C(C)C)NC(=O)[C@@H](CN)NC(=O)CNC(=O)[C@H](CC(=O)O)NC(=O)CNC(=O)[C@H](CC(=O)O)NC(=O)[C@H](CC(=O)O)NC(=O)[C@H]2CCCCN2C1=O | broth microdilution | VISA LIM strain 2, Mueller-Hinton broth, Mg2+ 10 mg/L | 16 h, with: Ca2+ 5 mM | – | MIC | 2 µg/mL (≈ 1.57 µM)
c1ccc(CCNC2CCCc3c2[nH]c2ccc(C4CCCCC4)cc32)cc1 (centres unmarked) | broth microdilution | SA113 ΔtarO | – | – | MIC | 4 µg/mL (≈ 10.7 µM)
CCCCCCCCCCCCCC(=O)N[C@H]1C(=O)N[C@@H](CN)C(=O)N[C@@H](CO)C(=O)N[C@@H](Cc2ccc(O)cc2)C(=O)O[C@H]1C | – | SH1000 | with: cardiolipin, molar ratio 2 | – | MIC | > 32 µg/mL
C=C(NC(=O)c1csc(-c2nc3c(cc2O)-c2nc(cs2)C(=O)NC(C(C)O)C(=O)NC(=C(C)OC)c2nc(cs2)C(=O)NC2c4nc(cs4)C(=O)NC(COC(=O)c4c5c6c(cccc6n4O)COC(=O)C(OC4CC(C)(O)C(N(C)C)C(C)O4)C2OC5)c2nc-3cs2)n1)C(N)=O (centres unmarked) | – | MRSA strain 5, vancomycin-induced | 20 generations | – | MIC | 0.0156 µg/mL (≈ 0.0109 µM)
OB(O)c1ccc(C(F)(F)F)s1 | – | USA300 wild type | 5 µM | relative to: untreated | growth relative to untreated | 100% and 85.2% and 77.3% and 75.4% and 73.5% and 86.9%
CC1C=CC=CC(C)C2C=CC3CC(C)(O)C(Cl)C(C)C3C2C(=O)C(Cl)(Cl)C(=O)C(C)C(=O)O1 (centres unmarked) | – | MSSA clinical isolate | no listed resistance | – | MIC | 0.025 µg/mL (≈ 0.047 µM)
CC[C@H](C)[C@@H]1NC(=O)[C@@H]([C@@H](C)O)NC(=O)CNC(=O)[C@H](CC(=O)O)NC(=O)CNC(=O)[C@H](CC(=O)O)NC(=O)CNC(=O)[C@H]2CCCCN2C(=O)[C@@H](NC(=O)[C@H](CC(=O)O)NC(=O)/C=C/CCCCCCCCCC(C)C)CNC(=O)[C@@H]2CCCN2C1=O | broth microdilution | BR-VRSA strain 880, Mueller-Hinton broth, Mg2+ 10 mg/L | 16 h, with: Ca2+ 1.0 mM | – | MIC | 4 µg/mL (≈ 3.21 µM)

A few entries again:
SMILES | assay | test system | setting | scale | quantity | result
CC1C=CC=CC(C)C2C=CC3CC(C)(O)C(Cl)C(C)C3C2C(=O)C(Cl)(Cl)C(=O)C(C)C(=O)O1 (centres unmarked) | – | MSSA clinical isolate | no listed resistance | – | MIC | 0.025 µg/mL (≈ 0.047 µM)
